Published values of several laboratories.
Every numbered part comes from another study and shows a few of its results, in no order. Positions count from the first letter of the parent shown.

Set 1 — target: tungstate, free oxyanion; technique: microfluidic competitive inhibition; sample: in vitro, cell-free expressed; tested at: not given; reading: lower = stronger binding
Notes: derived from inhibition constants, unchanged parent 2230 nM
Starting sequence: PafA, mature enzyme, eGFP fusion (Elizabethkingia meningoseptica, UniProt Q9KJX5); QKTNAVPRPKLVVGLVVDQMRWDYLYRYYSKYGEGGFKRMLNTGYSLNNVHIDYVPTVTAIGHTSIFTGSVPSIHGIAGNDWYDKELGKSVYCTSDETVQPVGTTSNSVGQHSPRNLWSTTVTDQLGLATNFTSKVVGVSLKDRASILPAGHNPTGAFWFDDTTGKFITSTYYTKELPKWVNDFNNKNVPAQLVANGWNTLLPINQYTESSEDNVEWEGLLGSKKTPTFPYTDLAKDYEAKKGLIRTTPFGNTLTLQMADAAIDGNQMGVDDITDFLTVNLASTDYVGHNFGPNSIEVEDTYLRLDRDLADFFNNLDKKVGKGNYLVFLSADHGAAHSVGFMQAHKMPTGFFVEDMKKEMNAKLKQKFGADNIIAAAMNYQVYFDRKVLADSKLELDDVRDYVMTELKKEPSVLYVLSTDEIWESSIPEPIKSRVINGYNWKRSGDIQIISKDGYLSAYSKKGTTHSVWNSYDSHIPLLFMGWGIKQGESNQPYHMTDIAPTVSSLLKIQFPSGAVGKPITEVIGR
Variant | oxyanion analog dissociation constant [µM]
L117V | 1.97
D84V | 2.42
F250V | 1.83
K175G | 2.18
E421V | 2.61
D275G | 2.06
K31V | 2.77
R386V | 2.25

Set 2 — target: CCND2, cyclin fold, Cln2 fusion (human); technique: yeast growth competition, sequencing; sample: yeast; notes: weak parent motif; reference: not given; reading: higher = stronger binding
Starting sequence: viral docking peptide; PTARRRLLHDLDT; partner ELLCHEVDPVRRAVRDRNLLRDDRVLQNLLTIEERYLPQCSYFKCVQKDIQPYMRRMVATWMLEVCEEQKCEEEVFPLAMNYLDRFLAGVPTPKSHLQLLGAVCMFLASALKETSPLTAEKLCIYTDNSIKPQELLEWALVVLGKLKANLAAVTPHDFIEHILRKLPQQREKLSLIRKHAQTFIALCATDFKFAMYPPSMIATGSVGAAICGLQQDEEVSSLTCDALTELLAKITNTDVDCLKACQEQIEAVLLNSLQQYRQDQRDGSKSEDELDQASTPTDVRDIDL
Variant | normalised enrichment score
PTARARLLHDLDT [R5A] | -0.071
PTARKRLLHDLDT [R5K] | -0.267
PTARRRLAHDLDT [L8A] | -0.345
PTARRRALHDLDT [L7A] | -0.0382
PTARRRLLHDLDA [T13A] | 0.104

Set 3 — read-out: binding; technique: phage display NGS; form: peptide; reference: input library
Target: UDP-N-acetylglucosamine--peptide N-acetylglucosaminyltransferase 110 kDa subunit (OGT, Homo sapiens, UniProt O15294)
Sequence of UniProt O15294 (whole entry, looked up): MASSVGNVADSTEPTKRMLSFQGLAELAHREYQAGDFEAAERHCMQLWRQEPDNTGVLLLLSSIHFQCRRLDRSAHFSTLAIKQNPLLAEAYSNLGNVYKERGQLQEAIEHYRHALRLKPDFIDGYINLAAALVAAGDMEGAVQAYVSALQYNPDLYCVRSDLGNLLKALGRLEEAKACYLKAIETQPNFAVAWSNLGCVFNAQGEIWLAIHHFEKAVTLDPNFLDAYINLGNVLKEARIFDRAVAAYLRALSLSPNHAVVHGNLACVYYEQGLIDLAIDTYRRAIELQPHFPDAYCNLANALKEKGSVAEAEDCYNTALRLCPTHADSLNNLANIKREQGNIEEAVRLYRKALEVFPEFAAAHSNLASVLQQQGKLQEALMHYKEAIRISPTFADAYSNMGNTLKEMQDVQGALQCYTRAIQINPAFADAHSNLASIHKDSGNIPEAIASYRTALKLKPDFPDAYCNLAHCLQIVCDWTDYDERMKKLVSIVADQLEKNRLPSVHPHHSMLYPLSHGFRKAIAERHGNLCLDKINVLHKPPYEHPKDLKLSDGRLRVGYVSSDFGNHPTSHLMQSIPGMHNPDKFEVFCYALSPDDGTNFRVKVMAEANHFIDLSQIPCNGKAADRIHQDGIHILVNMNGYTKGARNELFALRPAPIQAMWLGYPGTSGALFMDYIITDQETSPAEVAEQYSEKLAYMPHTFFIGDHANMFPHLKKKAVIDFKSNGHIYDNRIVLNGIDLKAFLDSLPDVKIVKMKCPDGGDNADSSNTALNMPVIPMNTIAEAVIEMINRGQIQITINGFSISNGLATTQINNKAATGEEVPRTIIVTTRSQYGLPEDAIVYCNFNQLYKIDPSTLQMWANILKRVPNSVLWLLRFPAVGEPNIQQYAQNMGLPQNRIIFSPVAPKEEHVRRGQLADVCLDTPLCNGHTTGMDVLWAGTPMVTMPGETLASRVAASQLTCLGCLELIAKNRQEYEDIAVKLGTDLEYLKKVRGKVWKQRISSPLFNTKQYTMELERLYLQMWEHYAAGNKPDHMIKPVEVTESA
Molecule | minimum log2 enrichment ratio
STFGRYLPSYIIQYR | 5.06
WGSSPYRPFYFIDIQ | 1.54
HLGHPHFYNHVYHYA | 1.8
DHARHPHEGTGTSHH | 2.73
GKRDHTFHMHSSVH | 2.33
HVDVRFPSAHHVRGT | 1.15
QHAHTHKHHHALTDI | 2.33
TKMNHHETTSEYLH | 1.63

Mixed results
Structure (SMILES) | target | test | setting | measurement | value
O=C(/C=C/c1ccc2ccccc2n1)c1ccncc1 | chymotrypsin | enzyme activity, inhibitor | 10 µM, with DTT | inhibition | 5.3%
